Results gathered from unrelated publications.
A part holds a random share of what one study measured.

Study 1
Target: Prothrombin, mature alpha-thrombin (F2, Homo sapiens, UniProt P00734)
Method: aptamer microarray, sandwich
Molecule type: DNA with 2'F-ANA
Matrix: in vitro
Tested at: 200 nM
Setting: whole 15-mer aptamer, many near background
Together with: Cy3 exosite-II aptamer, 400 nM
Direction: higher = stronger binding
Strand: GGTTGGTGTGGTTGG
Modification | mean fluorescence intensity
2'F-ANA at 1 2 3 7 8 9 10 11 13 | 67.4 a.u.
2'F-ANA at 5 7 9 10 12 14 | 44.9 a.u.
2'F-ANA at 1 4 7 8 10 13 15 | 53.6 a.u.
2'F-ANA at 2 3 4 8 9 11 12 | 811 a.u.
2'F-ANA at 2 3 8 9 13 14 15 | 386 a.u.
2'F-ANA at 2 3 4 5 7 9 11 12 13 14 15 | 52.3 a.u.
2'F-ANA at 5 6 7 8 11 14 | 183 a.u.
2'F-ANA at 1 2 3 6 8 9 10 13 15 | 57.9 a.u.
2'F-ANA at 2 7 10 11 12 13 | 179 a.u.
2'F-ANA at 3 4 6 8 11 14 | 290 a.u.

Study 2
Target: Sal-like protein 4, full length isoform B (SALL4, Homo sapiens, UniProt Q9UJQ4-2, residues 1-616)
Method: universal PBM
Molecule type: double-stranded DNA, one strand shown
Matrix: in vitro
Tested at: not given
Setting: 8-mer, flanks averaged, mean of replicates
Direction: higher = stronger binding
Residues (chain): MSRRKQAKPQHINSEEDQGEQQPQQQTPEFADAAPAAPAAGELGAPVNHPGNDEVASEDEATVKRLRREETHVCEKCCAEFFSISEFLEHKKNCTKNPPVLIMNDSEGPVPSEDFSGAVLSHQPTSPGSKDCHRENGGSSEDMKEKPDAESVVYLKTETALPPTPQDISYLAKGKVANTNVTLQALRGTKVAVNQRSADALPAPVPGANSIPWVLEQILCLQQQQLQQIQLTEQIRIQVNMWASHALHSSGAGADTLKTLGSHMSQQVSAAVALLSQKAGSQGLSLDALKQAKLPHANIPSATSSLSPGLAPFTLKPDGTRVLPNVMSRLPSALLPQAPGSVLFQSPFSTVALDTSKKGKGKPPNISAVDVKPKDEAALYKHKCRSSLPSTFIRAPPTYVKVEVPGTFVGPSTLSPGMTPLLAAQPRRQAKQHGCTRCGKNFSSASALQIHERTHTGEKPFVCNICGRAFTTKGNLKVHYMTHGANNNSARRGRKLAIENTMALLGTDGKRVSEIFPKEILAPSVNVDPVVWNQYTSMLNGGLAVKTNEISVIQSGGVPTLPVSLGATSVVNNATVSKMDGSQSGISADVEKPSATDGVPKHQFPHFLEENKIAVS
Strand | E-score
AGAGCCTG | -0.205
ACGGAGTC | -0.114
ATTGAGCC | -0.0145
AATGCTCG | 0.113
AGTTCACA | 0.105
CCACCCCG | -0.0592
GCACGTCC | -0.18

Study 3
Target: Phosphate system positive regulatory protein PHO4, full length, GST-tagged (PHO4, Saccharomyces cerevisiae, UniProt P07270, residues 1-312)
Method: competition protein-binding microarray
Molecule type: double-stranded DNA, one strand shown
Matrix: in vitro
Tested at: 2 µM
Setting: whole 60-bp probe, lowest competitor level
Together with: Cbf1 competitor, 0.05 µM
Direction: higher = stronger binding
Shared flanks, not repeated: … GTCTTGATTCGCTTGACGCTGCTG
Construct (chain): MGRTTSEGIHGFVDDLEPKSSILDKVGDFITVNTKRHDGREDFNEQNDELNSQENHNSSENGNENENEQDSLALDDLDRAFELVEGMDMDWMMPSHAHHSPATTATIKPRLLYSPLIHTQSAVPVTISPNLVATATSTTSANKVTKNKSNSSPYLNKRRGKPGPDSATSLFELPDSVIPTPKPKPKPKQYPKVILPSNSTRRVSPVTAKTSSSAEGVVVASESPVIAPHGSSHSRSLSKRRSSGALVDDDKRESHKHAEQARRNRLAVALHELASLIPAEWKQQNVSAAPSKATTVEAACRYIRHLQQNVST
Strand | fluorescence intensity
GGAATTGGTTCACTGATTGAAAGTGATTTTGAGAGG | 2820 a.u.
CTGTTTCTTCTCCATACTTTCAAATATTCAAATTGA | 4070 a.u.
TTGGCAACTCTCTCCGTCATGACAACTACTCCGCGG | 3050 a.u.
CATACCCAACCTTGGTGTGTGGGTGAAGATATTTGT | 5950 a.u.
CCGATCTCTTTCCGACACGTGGAGGAGACATGAAAG | 19000 a.u.
TCTGGGTGTAACATTCAGATGCGGGCGTCATTTATT | 3760 a.u.
TTTTTTCAGATGGAGACTGTGATGGGGTAGCGCTTG | 3740 a.u.
TTGTAAGATTCTACTCCCGTGAAGATCCCAATCGCT | 3740 a.u.

Other studies, line by line
Molecule | target | test | test system | setting | scale | measurement | value
PhoQ, residues 284 288 289 292 302 303 TTCLQL | PhoP, residues 12 14 15 18 19 NHFRA (Escherichia coli, UniProt P23836) | Sort-seq, refers to: YFP reporter | E. coli | PhoQ-PhoP variant library, together with: 10 µM Mg2+ | relative to: high Mg2+ state, higher = stronger signaling | fold induction | 0.882
